Results from different studies.
Numbered parts are unrelated; each lists some results of a single study.
UniProt P51451, sequence (whole entry, looked up): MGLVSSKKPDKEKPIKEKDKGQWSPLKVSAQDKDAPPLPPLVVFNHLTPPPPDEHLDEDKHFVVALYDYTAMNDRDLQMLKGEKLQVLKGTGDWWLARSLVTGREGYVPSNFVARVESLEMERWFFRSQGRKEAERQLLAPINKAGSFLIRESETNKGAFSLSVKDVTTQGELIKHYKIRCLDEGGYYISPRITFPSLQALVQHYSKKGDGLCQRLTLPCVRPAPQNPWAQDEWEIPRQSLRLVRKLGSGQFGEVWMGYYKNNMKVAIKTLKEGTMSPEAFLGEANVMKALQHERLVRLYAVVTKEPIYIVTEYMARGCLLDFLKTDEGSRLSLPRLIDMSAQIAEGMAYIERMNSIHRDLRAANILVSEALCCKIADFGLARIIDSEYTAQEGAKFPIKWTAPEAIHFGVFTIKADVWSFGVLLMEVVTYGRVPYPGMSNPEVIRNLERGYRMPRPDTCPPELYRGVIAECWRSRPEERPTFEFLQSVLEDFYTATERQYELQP
UniProt O94921, sequence (whole entry, looked up): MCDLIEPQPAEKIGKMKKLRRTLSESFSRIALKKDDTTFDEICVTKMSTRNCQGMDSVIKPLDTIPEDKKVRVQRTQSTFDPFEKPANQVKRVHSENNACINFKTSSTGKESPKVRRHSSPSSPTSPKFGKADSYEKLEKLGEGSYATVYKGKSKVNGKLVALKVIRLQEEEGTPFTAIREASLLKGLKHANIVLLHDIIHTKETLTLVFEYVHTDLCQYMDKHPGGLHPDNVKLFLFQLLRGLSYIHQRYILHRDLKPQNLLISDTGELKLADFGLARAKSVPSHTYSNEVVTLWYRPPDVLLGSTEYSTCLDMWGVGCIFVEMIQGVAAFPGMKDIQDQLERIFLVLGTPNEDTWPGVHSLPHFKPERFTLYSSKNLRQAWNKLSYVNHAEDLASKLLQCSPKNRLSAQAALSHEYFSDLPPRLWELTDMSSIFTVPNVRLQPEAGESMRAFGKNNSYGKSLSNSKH
UniProt P19525, sequence (whole entry, looked up): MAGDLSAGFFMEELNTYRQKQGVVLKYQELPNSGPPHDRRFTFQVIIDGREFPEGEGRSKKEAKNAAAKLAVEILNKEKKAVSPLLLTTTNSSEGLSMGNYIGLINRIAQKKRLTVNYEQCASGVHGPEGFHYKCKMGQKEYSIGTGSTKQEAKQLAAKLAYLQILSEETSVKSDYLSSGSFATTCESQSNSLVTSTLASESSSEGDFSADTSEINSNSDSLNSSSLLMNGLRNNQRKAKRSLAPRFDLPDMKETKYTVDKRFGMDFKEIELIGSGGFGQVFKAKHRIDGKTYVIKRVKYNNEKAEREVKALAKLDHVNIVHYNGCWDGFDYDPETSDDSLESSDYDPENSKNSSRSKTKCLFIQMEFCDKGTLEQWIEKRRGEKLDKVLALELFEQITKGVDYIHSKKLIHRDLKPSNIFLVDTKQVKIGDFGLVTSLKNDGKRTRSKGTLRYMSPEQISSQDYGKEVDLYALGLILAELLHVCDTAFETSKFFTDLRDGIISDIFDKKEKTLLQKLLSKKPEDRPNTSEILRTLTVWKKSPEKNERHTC

Sample 1
Structure (SMILES): CN([C@@H]1CCc2c(CC(=O)O)c3ccccc3n2C1)S(=O)(=O)c1ccc(F)cc1
Read-out: cell-free assay
Method: competition with immobilised ligand
Concentration: 1 µM
target | remaining binding
CDK14 (Homo sapiens, UniProt O94921) | 100%
BLK (Homo sapiens, UniProt P51451) | 100%
EIF2AK2 (Homo sapiens, UniProt P19525) | 100%

Sample 2
Target: Sal-like protein 4, full length isoform B (SALL4, Homo sapiens, UniProt Q9UJQ4-2, residues 1-616)
Method: universal PBM
Form: double-stranded DNA, one strand shown
Sample: in vitro
Concentration: not given
Notes: 8-mer, flanks averaged, mean of replicates
Direction: higher = stronger binding
Oligonucleotide | E-score
ATGCGTAG | -0.0151
CCTATAAG | -0.0503
ACCCCTTA | -0.0112
ACCTGACA | -0.117
ACTCGGGG | -0.197
GGTTATTA | 0.388
GCCAAATA | 0.1
AGCGTACA | 0.0165

Sample 3
Target: Serine/threonine-protein kinase Nek3 (NEK3, Homo sapiens, UniProt P51956)
Read-out: enzyme activity
Mode: inhibitor
Concentration: 0.5 µM
Relative to: control
Target sequence (P51956 1-506): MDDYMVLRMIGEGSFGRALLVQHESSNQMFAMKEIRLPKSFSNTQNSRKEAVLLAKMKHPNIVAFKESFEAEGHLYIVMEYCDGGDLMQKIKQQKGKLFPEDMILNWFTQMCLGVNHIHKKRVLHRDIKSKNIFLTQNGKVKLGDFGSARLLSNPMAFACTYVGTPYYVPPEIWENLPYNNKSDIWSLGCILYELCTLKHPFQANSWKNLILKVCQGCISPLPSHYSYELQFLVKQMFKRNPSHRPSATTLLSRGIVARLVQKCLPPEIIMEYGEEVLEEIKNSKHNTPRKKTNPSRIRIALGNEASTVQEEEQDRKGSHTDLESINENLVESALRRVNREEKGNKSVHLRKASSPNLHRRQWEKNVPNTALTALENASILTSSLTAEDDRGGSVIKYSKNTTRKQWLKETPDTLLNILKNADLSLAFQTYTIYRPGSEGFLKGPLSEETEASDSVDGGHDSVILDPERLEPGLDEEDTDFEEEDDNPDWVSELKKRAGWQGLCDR
SMILES | remaining activity
Nc1[nH]nc2nc3ccccc3nc12 | 94.9%
O=c1c2ccccc2[nH]c(=S)n1CCN1CCC(=C(c2ccc(F)cc2)c2ccc(F)cc2)CC1 | 94%
COc1cc2ncnc(Nc3ccc(F)c(Cl)c3)c2cc1OCCCN1CCOCC1 | 94.4%
CCOC(=O)c1c(C)[nH]c(/C=C2\C(=O)Nc3ccccc32)c1C | 101%
COc1ccc(C(=O)Nc2sc3c(c2C(N)=O)CCCC3)cc1OC | 95.8%
COc1ccc(CNC(=O)Nc2ncc([N+](=O)[O-])s2)cc1 | 78.6%
COc1cc2nccc(Oc3ccc(NC(=S)NC(=O)c4ccccc4C)cc3)c2cc1OC | 99.6%
Cc1ccc(NC(=O)c2ccc(CN3CCN(C)CC3)cc2)cc1Nc1nc(-c2cccnc2)cs1 | 99.3%
COc1cc2ncnc(Nc3ccc(Oc4ccccc4)cc3)c2cc1OC | 98.4%
O=C1NC(=O)C(c2cn(CCCn3ccnc3)c3ccccc23)=C1Nc1ccccc1 | 99.5%
CC(C)[C@H](CO)Nc1nc(Nc2cc(N)cc(Cl)c2)c2ncn(C(C)C)c2n1 | 100%
O=C(O)c1ccc2c3c1cccc3c(=O)n1c3ccccc3nc21 | 91.8%
CN(C)c1ccc(C=C2C(=O)Nc3ccccc32)cc1 | 95.2%

Sample 4
Host: human
Sample: microsomes or S9
Concentration: 2 µM
Time: 0.5 h
SMILES | remaining compound
Cc1c(C(=O)O)[nH]c(S(=O)(=O)NCCO)c1C | 49.1%
CC(C)n1cncc1CN1CC[C@H]2OCc3cnnn3[C@H]2C1 | 79.6%
O=C(Nc1nncn1-c1ccccc1)c1cnc2ccccn12 | 91.8%

A few entries again (sample 3):
SMILES | remaining activity
COc1ccc(C(=O)Nc2sc3c(c2C(N)=O)CCCC3)cc1OC | 95.8%
CCOC(=O)c1c(C)[nH]c(/C=C2\C(=O)Nc3ccccc32)c1C | 101%
